Results pooled from the literature.
Protocols differ between the studies behind these lines. Numbers after ± are the reported error. Values after ≈ are worked out from the molar mass of the structure shown.
UniProt P08172, sequence (whole entry, looked up): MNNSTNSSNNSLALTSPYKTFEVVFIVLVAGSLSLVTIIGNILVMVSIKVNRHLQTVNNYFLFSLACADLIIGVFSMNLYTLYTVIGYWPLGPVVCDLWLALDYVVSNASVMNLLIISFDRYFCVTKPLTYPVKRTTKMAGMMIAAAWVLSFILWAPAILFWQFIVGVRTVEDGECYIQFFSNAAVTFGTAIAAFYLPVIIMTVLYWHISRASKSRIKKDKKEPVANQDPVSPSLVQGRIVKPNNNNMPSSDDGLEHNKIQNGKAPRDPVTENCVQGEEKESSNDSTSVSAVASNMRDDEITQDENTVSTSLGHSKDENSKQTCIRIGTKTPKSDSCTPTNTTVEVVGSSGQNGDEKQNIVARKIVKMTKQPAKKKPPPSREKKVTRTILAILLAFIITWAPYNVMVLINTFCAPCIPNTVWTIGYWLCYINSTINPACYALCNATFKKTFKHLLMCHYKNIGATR
UniProt P05177, sequence (whole entry, looked up): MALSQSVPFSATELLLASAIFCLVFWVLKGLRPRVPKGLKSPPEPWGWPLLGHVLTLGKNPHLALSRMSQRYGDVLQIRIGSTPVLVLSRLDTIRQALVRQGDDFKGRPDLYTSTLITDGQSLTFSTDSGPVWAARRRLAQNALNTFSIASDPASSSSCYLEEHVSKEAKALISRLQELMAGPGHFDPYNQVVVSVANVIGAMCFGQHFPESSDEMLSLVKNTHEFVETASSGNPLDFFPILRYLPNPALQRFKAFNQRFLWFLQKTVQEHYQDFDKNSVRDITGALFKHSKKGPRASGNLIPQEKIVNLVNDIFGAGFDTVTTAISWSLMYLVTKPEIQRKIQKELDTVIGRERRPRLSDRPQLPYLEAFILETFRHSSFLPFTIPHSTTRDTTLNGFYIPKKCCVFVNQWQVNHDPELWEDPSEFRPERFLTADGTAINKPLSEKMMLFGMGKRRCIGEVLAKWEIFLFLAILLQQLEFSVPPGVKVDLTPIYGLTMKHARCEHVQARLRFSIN

Structure (SMILES) = O=C(/C=C/c1coc2ccccc2c1=O)N1CCN(C(=S)SC2CC2)CC1; target or system = tomato spotted wilt virus; test = viral infection, half-leaf method; test system = Nicotiana glutinosa; conditions = 500 µg/mL; quantity = inactivation effect; result = 55.7 ± 2.5%
Structure (SMILES) = N=C(N)NCCC[C@@H]1NC(=O)[C@H](Cc2c[nH]c3ccccc23)NC(=O)[C@@H](CC2CCCCC2)NC(=O)[C@@H]2CCCN2C(=O)[C@@H](NC(=O)CCc2ccccc2)CCCNC1=O; test system = C57BL/6J mouse, plasma plasma; conditions = intraperitoneal, 1 mg/kg single dose; quantity = MRT(0-inf); result = 26.3 min
Structure (SMILES) = CCN(CC)CCSC(=S)N1CCN(C(=O)/C=C/c2coc3ccc(OC)cc3c2=O)CC1; target or system = tomato spotted wilt virus; test = virus inactivation, half-leaf method; test system = Nicotiana glutinosa; conditions = tested 31.25 to 500 µg/mL; quantity = EC50; result = 162 ± 9.7 µg/mL (≈ 332 µM)
Structure (SMILES) = CC(=O)N[C@H](C(=O)N[C@H](C(=O)N[C@@H](CCCNC(=N)N)C(=O)N1Cc2ccccc2C[C@H]1C(=O)N[C@@H](Cc1ccccc1)C(N)=O)C1CCCCC1)C(C)C; target or system = human PBMC; test = Bio-Plex multiplex, measured: Eotaxin; conditions = 500 µg/mL, 24 h; quantity = cytokine level; result = < 1.6 pg/mL
Structure (SMILES) = Cc1cc(C)nc(NC(=S)N2CCN(Cc3ccc(C(F)(F)F)cc3)CC2)c1; target or system = ZR-75-1 and SK-MEL-2; conditions = concentration not given, PHGDH-independent lines; quantity = cytotoxicity; result = not toxic
Structure (SMILES) = C=CC(=O)Nc1cc(Nc2nccc(-c3cn(C)c4ccccc34)n2)c(OCC(F)(F)F)nc1N(C)CCN(C)C; target or system = Cytochrome P450 1A2 (CYP1A2, Homo sapiens, UniProt P05177); test = enzyme activity, inhibitor; test system = human, liver microsomes; conditions = 1 µM; quantity = activity vs control; result = 91.2%
Structure (SMILES) = COc1ccc2c(=O)c(/C=C/C(=O)N3CCN(C(=S)SCCN(C)C)CC3)coc2c1; target or system = tomato spotted wilt virus; test = virus inactivation, half-leaf method; test system = Nicotiana glutinosa; conditions = tested 31.25 to 500 µg/mL; quantity = EC50; result = 179 ± 7.4 µg/mL (≈ 387 µM)
Structure (SMILES) = Cc1cc(O)c(C=O)c2c1C(=O)Oc1c(CO)c(O)c3c(c1O2)C(O)OC3=O (stereo not shown); test system = rat male, streptozotocin diabetic; conditions = 5 mg/kg, 9 weeks; quantity = body weight; result = 172 ± 5.91 g
Structure (SMILES) = O=C(OC1CCN(CCOCCOCCN2CCC(OC(=O)C(c3ccccc3)c3ccccc3)CC2)CC1)C(c1ccccc1)c1ccccc1; target or system = CHRM2 (Homo sapiens, UniProt P08172); test = ligand displacement, radioligand; quantity = Ki; result = 891 nM
Structure (SMILES) = COc1ccc(C2CC(c3ccc(C)cc3)=Nc3ccccc3S2)cc1OC (stereo not shown); test system = Wistar rat, STZ-induced diabetes; conditions = oral, 20 mg/kg once daily, day 21; quantity = body weight; result = 181 ± 3.98 g
Structure (SMILES) = CCCC[C@H](NC(=O)CNC(=O)CNC(=O)CN1CCN(CC(=O)O)CCN(CC(=O)O)CCN(CC(=O)O)CC1)C(=O)N[C@H]1CC(=O)NCCCC[C@@H](C(N)=O)NC(=O)[C@H](Cc2c[nH]c3ccccc23)NC(=O)[C@H](CCCNC(=N)N)NC(=O)[C@@H](Cc2ccccc2)NC(=O)[C@H](Cc2c[nH]cn2)NC1=O [lutetium-177 labelled]; test system = C57 mouse, female, intestines; conditions = intravenous, 0.037 MBq, 0.5 h; quantity = tissue uptake; result = 1.66 ± 0.34 %ID
Structure (SMILES) = CCN(CC)CCSC(=S)N1CCN(C(=O)/C=C/c2coc3ccc(F)cc3c2=O)CC1; target or system = tomato spotted wilt virus; test = viral infection, half-leaf method; test system = Nicotiana glutinosa; conditions = 500 µg/mL; quantity = inactivation effect; result = 70.6%
Structure (SMILES) = CN1C(=O)[C@@H](Cc2ccc(O)cc2)NC(=O)CNC(=O)[C@H](Cc2ccc3ccccc3c2)NC(=O)[C@H](CCCNC(=N)N)NC(=O)[C@H]1CCCNC(=O)c1ccc(CNC(=O)CN2CCN(CC(=O)O)CCN(CC(=O)O)CCN(CC(=O)O)CC2)cc1 [gallium-68 labelled]; test system = adult reference man, from C57BL/6 mice data, osteogenic cells; quantity = absorbed dose coefficient; result = 0.00801 mGy/MBq
Structure (SMILES) = Oc1cc(C(F)(F)F)ccc1-c1nc2c(C(F)(F)F)cc(C(F)(F)F)cc2[nH]1; target or system = Klebsiella pneumoniae; test = colistin potentiator; test system = KP F9, colistin-resistant; conditions = 5 µM; quantity = colistin MIC; result = 0.5 µg/mL
Structure (SMILES) = O=C(CCCN1C(=O)c2cccc3cccc(c23)C1=O)NO; target or system = Cryptosporidium parvum; test system = SCID mouse; conditions = oral, in diet, 10 mg/kg once daily; how to read = reference: untreated infected; quantity = oocyst excretion; result = decreased
Structure (SMILES) = CC/C=C\C/C=C\C/C=C\C/C=C\C/C=C\CCCCOC(CC)C(=O)O (stereo not shown); test system = APOE*3Leiden.CETP mice, high-fat/cholesterol diet; conditions = dose not given, 20 weeks; how to read = reference: control; quantity = hepatic ceramides; result = decreased
Structure (SMILES) = CC(=O)OC[C@H]1O[C@@H](Sc2sc(C(=O)c3ccc(C)cc3)c(N)c2-c2nc3ccccc3s2)[C@H](OC(C)=O)[C@@H](OC(C)=O)[C@H]1OC(C)=O; target or system = SNB-75; test = SRB; conditions = 10 µM, 48 h; how to read = reference: untreated; quantity = growth; result = 55.7%
Structure (SMILES) = CCN(CC)CCSC(=S)N1CCN(C(=O)/C=C/c2coc3ccccc3c2=O)CC1; target or system = tomato spotted wilt virus; test = viral infection, half-leaf method; test system = Nicotiana glutinosa; conditions = 500 µg/mL; quantity = protective effect; result = 59.5 ± 4.9%
Structure (SMILES) = CC[C@H](C)[C@H](NC(=O)[C@H](Cc1ccccc1)NC(=O)[C@@H](NC(=O)[C@@H](NC(=O)[C@H](CC(C)C)NC(=O)[C@H](CCCCN)NC(=O)[C@@H](N)CCCCN)[C@@H](C)CC)[C@@H](C)O)C(=O)N[C@@H](CC(C)C)C(=O)N[C@@H](CCCCN)C(=O)N[C@@H](CCCCN)C(=O)N[C@H](C(=O)N[C@@H](CCCNC(=N)N)C(=O)N[C@@H](CCC(=O)O)C(=O)N[C@@H](CCCCN)C(=O)N[C@@H](CCCCN)C(=O)N[C@@H](CCCCN)C(=O)N[C@@H](CCC(=O)O)C(=O)N[C@@H](CS)C(=O)N[C@@H](CC(C)C)C(=O)N[C@H](C(=O)O)C(C)C)[C@@H](C)O; target or system = voltage-gated sodium channel; test = resurgent sodium current, kinetic model fit; test system = mouse CA3 neurons; conditions = 200 µM, membrane potential -30 mV; quantity = rate constant kOB; result = 62 s⁻¹
Structure (SMILES) = Cc1sc2ncn(CC(=O)N3CCCC3)c(=O)c2c1-c1cccc(Br)c1; target or system = NMDA receptor, mouse; test = single-channel current, outside-out patch; test system = cortical neurons; conditions = concentration not given, added: Ca2+ 0.5 mM; quantity = amplitude 1 area; result = 79%
Structure (SMILES) = COc1ccc(C2CC(c3ccc(C)cc3)=Nc3ccccc3S2)cc1 (stereo not shown); test system = Wistar rat, STZ-induced diabetes; conditions = oral, 20 mg/kg once daily, day 28; quantity = body weight; result = 183 ± 4.68 g
Structure (SMILES) = Cc1cc([C@H](C(=O)N2C[C@H](O)C[C@H]2C(=O)N[C@@H](CC(=O)N2CCC(N3CCC(C#Cc4ccc(C(=O)N[C@H]5C(C)(C)[C@H](Oc6ccc(C#N)c(Cl)c6)C5(C)C)cc4)CC3)CC2)c2ccc(-c3scnc3C)cc2)C(C)C)on1; target or system = MDA-MB-453; test = flow cytometry; conditions = 72 h; quantity = G2/M arrest concentration; result = 0.5 µM
Structure (SMILES) = O=Cc1c(O)ccc2ccccc12; target or system = HUVEC; test = RNA sequencing, measured: PPP1R15A; conditions = 75 µM, 24 h; how to read = reference: DMSO; quantity = log2 fold change; result = 2.47
Structure (SMILES) = Cc1ccc2nc(-c3ccc4nc(-c5ccc(NC(=O)c6ccc7ccccc7c6)cc5)sc4c3)sc2c1S(=O)(=O)O; test = SYBR Green I displacement; test system = DNA substrate; conditions = 100 µM; quantity = DNA binding; result = 64 ± 7%
Structure (SMILES) = CC[C@H](C)[C@H](NC(=O)[C@H](CC(C)C)NC(=O)[C@H](CCCCN)NC(=O)[C@@H](N)CCCCN)C(=O)N[C@H](C(=O)N[C@@H](Cc1ccccc1)C(=O)N[C@H](C(=O)N1CCC[C@H]1C(=O)N[C@@H](CCCCN)C(=O)N[C@@H](CCCCN)C(=O)N[C@H](C(=O)N[C@@H](CCCNC(=N)N)C(=O)N[C@@H](CCC(=O)O)C(=O)N[C@@H](CCCCN)C(=O)N[C@@H](CCCCN)C(=O)N[C@@H](CCCCN)C(=O)N[C@@H](CCC(=O)O)C(=O)N[C@@H](CS)C(=O)N[C@@H](CC(C)C)C(=O)N[C@H](C(=O)O)C(C)C)[C@@H](C)O)[C@@H](C)CC)[C@@H](C)O; target or system = voltage-gated sodium channel; test = resurgent sodium current, kinetic model fit; test system = mouse CA3 neurons; conditions = 200 µM, membrane potential -10 mV; quantity = rate constant kOB; result = 252 s⁻¹
Structure (SMILES) = COc1ccc2occ(/C=C/C(=O)N3CCN(C(=S)SCCN(C)C)CC3)c(=O)c2c1; target or system = tomato spotted wilt virus; test = viral infection, half-leaf method; test system = Nicotiana glutinosa; conditions = 500 µg/mL; quantity = curative effect; result = 60.7 ± 3%
Structure (SMILES) = Oc1ccc(C(F)(F)F)cc1-c1nc2c(Cl)cc(Cl)cc2[nH]1; target or system = Klebsiella pneumoniae; test = colistin potentiator; test system = KP F3, colistin-resistant; conditions = 5 µM; quantity = colistin MIC; result = 2 µg/mL
Structure (SMILES) = CN(C)CCSC(=S)N1CCN(C(=O)/C=C/c2coc3ccc(F)cc3c2=O)CC1; target or system = tomato spotted wilt virus; test = viral infection, half-leaf method; test system = Nicotiana glutinosa; conditions = 500 µg/mL; quantity = protective effect; result = 64.3 ± 4.3%
Structure (SMILES) = CCC(=O)N(C)c1ccc(Cl)c(Cl)c1; target or system = CHO-WBL; conditions = 0.063 mg/mL, 3 h, without S9 activation; quantity = cells with multiple aberrations; result = 0%
Structure (SMILES) = CCNc1cc2c(cc1C)C1(c3cc(C)c(NCC)cc3O2)c2ccccc2C(=O)N1N=Cc1c[c-]c(-c2ccccn2)cc1.Cc1c(C)c(-c2ccc(-c3ccccc3)cc2)[c-](C)c1C.[Cl-].[Ir+3]; target or system = A549; test = flow cytometry; conditions = concentration not given, 24 h; how to read = reference: untreated; quantity = MMP-9 protein level; result = decreased
Structure (SMILES) = [64Cu+2].c1ccc(CNCc2ccc(CN3CCCN4CCNCCCN(CC4)CC3)cc2)nc1; target or system = CXCR4; test system = NOD/SCID mouse, U87 and U87-stb-CXCR4 xenografts, bladder; conditions = iv, 240 min, ex vivo; quantity = tissue uptake; result = 2.27 ± 0.23 %ID/g

Some of these lines once more:
Structure (SMILES) = Oc1ccc(C(F)(F)F)cc1-c1nc2c(Cl)cc(Cl)cc2[nH]1; target or system = Klebsiella pneumoniae; test = colistin potentiator; test system = KP F3, colistin-resistant; conditions = 5 µM; quantity = colistin MIC; result = 2 µg/mL
Structure (SMILES) = O=C(/C=C/c1coc2ccccc2c1=O)N1CCN(C(=S)SC2CC2)CC1; target or system = tomato spotted wilt virus; test = viral infection, half-leaf method; test system = Nicotiana glutinosa; conditions = 500 µg/mL; quantity = inactivation effect; result = 55.7 ± 2.5%
Structure (SMILES) = Cc1cc(C)nc(NC(=S)N2CCN(Cc3ccc(C(F)(F)F)cc3)CC2)c1; target or system = ZR-75-1 and SK-MEL-2; conditions = concentration not given, PHGDH-independent lines; quantity = cytotoxicity; result = not toxic
